# Experimental data from different studies.
# Chain of UniProt Q92772 (whole entry, looked up): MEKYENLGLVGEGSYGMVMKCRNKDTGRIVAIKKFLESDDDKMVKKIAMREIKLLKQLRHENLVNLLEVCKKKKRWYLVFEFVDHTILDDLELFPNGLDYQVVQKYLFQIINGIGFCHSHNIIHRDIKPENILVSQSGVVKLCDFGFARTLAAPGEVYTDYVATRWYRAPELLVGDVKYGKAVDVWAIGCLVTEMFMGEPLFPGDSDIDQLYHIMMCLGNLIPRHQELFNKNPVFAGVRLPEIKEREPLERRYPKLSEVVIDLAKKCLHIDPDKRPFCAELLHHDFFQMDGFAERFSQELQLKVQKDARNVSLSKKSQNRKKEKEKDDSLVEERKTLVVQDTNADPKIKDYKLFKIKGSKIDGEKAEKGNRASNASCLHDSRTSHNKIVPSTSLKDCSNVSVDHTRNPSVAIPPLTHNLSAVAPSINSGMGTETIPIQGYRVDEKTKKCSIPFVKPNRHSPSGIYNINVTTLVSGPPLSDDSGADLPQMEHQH
# Chain of UniProt Q13177 (whole entry, looked up): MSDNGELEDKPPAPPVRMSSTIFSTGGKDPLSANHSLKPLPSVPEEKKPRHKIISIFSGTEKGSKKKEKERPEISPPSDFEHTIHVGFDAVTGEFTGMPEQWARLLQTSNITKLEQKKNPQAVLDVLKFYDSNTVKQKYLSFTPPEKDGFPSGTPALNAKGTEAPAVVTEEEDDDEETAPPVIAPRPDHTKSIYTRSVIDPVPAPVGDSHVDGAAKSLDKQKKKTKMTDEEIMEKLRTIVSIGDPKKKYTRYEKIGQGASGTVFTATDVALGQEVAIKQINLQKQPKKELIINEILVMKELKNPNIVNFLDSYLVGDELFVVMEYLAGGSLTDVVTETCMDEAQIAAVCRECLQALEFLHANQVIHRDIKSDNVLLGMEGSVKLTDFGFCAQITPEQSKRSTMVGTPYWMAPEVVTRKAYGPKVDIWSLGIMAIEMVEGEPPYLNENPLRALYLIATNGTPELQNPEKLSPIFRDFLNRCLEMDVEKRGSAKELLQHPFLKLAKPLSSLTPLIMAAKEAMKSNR
# Chain of UniProt P57078 (whole entry, looked up): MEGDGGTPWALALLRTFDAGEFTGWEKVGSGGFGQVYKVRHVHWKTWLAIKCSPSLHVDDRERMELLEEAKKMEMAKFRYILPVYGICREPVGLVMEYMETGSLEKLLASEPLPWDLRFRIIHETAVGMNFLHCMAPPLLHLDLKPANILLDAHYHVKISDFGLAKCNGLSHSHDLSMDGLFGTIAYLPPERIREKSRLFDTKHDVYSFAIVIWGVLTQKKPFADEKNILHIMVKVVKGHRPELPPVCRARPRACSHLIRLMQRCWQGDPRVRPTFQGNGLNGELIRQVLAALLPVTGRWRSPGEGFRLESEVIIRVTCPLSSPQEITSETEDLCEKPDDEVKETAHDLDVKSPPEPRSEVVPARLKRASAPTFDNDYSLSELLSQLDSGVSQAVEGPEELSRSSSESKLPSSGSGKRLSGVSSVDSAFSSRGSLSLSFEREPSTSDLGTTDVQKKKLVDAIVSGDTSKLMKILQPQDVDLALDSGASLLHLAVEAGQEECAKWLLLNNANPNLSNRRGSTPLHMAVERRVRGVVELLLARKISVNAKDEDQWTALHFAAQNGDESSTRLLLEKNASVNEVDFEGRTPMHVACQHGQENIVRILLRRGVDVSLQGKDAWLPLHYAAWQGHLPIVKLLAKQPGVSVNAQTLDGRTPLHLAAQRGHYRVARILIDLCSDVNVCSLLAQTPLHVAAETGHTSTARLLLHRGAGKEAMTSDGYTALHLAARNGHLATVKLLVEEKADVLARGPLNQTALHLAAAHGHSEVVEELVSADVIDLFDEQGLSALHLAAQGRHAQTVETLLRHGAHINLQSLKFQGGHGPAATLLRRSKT
# Chain of UniProt Q08345 (whole entry, looked up): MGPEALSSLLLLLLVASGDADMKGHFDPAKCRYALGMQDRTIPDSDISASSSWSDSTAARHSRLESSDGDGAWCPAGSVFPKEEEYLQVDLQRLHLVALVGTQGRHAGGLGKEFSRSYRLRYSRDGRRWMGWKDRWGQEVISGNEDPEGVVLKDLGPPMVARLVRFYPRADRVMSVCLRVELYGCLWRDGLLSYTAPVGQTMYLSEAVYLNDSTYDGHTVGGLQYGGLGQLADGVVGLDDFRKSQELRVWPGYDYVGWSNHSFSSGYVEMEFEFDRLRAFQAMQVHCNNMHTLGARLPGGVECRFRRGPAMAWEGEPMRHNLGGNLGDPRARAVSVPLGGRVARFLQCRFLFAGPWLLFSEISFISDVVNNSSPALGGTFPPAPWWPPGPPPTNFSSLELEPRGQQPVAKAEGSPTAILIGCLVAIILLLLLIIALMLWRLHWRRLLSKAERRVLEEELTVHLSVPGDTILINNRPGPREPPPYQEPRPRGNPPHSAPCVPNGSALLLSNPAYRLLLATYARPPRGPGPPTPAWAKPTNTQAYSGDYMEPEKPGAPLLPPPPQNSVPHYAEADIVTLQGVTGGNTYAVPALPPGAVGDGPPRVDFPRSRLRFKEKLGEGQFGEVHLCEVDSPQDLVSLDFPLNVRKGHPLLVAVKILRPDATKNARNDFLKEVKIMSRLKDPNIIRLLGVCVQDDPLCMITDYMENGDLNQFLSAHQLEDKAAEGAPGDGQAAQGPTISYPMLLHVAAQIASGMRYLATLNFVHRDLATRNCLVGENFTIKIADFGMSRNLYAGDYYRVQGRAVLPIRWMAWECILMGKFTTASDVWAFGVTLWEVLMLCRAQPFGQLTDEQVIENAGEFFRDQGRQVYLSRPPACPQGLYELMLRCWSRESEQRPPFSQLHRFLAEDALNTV
# Chain of UniProt Q99986 (whole entry, looked up): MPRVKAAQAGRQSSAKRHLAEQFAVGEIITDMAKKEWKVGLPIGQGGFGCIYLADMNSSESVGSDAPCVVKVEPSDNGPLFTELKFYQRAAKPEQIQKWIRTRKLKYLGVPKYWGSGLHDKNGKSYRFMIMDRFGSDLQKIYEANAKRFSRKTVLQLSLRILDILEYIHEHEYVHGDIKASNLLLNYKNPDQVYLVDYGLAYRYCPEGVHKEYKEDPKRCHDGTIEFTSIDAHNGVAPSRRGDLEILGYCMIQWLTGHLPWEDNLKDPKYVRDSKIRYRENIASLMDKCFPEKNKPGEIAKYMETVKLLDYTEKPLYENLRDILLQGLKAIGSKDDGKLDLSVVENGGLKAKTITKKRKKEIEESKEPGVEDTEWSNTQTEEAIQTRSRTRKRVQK
SMILES,tested on,test,setting,quantity,value
NC(=S)NN=C(CS(=O)(=O)c1ccccc1)c1ccc(F)cc1,WM 266-4,"cell growth or viability, MTT","6.3 µM, 48 h",viability,38.5%
CC(=NNC(=O)c1ccccc1O)c1ccc(Nc2nnc(-c3ccc(Cl)cc3)c3ccccc23)cc1,MCF7,"cell growth or viability, MTT",1.25 µM,cell death,9.65%
Cc1[nH]c(C)c([N+](=O)[O-])c(=O)c1-c1ccc(Oc2ccc(OC(F)(F)F)cc2)cc1,HEK293,cell growth or viability,,IC50,> 10 µM
OCc1ccc(-c2nn(Cc3ccc(Cl)cc3)c3ccccc23)o1,RBE,"cell growth or viability, ATP luminescence","46 µM, 72 h",inhibition,70%
CN(C)C1CCCN(C(=O)/C=C/c2nn(CC3CCCC3)c3ncnc(N)c23)C1 (stereo not shown),FLO-1,"cell growth or viability, resazurin",5 days,EC50,> 30 µM
Cc1noc(NS(=O)(=O)c2ccc(N=NN(C)O)cc2)c1C,,ABTS scavenging,240 µg/mL,inhibition,95.6%
CC(=NNC(=O)c1ccc(N)cc1)c1ccc(Nc2nnc(-c3ccc(Cl)cc3)c3ccccc23)cc1,MCF7,"cell growth or viability, MTT","2.5 µM, 24 h",viability,5.36%
Cc1c(Cc2ccccc2)c(=O)oc2c(C)c(OCC(=O)NN=Cc3ccc([N+](=O)[O-])cc3)ccc12,PC-3,"cell growth or viability, MTT",125 µg/mL,viability,9.13%
CNc1ncc2c(/C=C/C(=O)N3CCC(N(C)C)CC3)nn(CC3CCCC3)c2n1,FLO-1,"cell growth or viability, resazurin",5 days,EC50,> 30 µM
Cc1c(Cc2ccccc2)c(=O)oc2c(C)c(OCC(=O)NN=Cc3ccc(Cl)cc3)ccc12,PC-3,"cell growth or viability, MTT",125 µg/mL,viability,35.1%
CC(=NNC(N)=S)c1ccc(Nc2nnc(-c3ccc(Cl)cc3)c3ccccc23)cc1,MCF7,"cell growth or viability, MTT","1.25 µM, 24 h",viability,5.53%
CCCOc1ccc2c(C)c(CC)c(=O)oc2c1C,PC-3,"cell growth or viability, MTT",1000 µg/mL,viability,4.85%
Cc1[nH]c(C)c(-c2ccc(-c3ccccc3Cl)nc2)c(=O)c1Br,HEK293,cell growth or viability,,IC50,> 10 µM
CCNC(=S)NNC(=O)COc1ccc2c(C)c(CC)c(=O)oc2c1C,PC-3,"cell growth or viability, MTT",125 µg/mL,viability,55.4%
C1=C/COCc2cc(ccc2OCCN2CCCC2)Nc2nccc(n2)-c2cccc(c2)COC/1,"DDR1 (Homo sapiens, UniProt Q08345)",binding,0.1 µM,remaining binding,54%
CC[C@]1(O)C[C@@H]2CN(CCc3c([nH]c4ccccc34)[C@@](C(=O)OC)(c3cc4c(cc3OC)N(C)[C@H]3[C@@](O)(C(=O)OC)[C@H](OC(C)=O)[C@]5(CC)C=CCN6CC[C@]43[C@@H]65)C2)C1,MB002,cell growth or viability,7 days,IC50,0.0254 µM
CC(=NNC(=O)c1ccccc1Br)c1ccc(Nc2nnc(-c3ccc(Cl)cc3)c3ccccc23)cc1,MCF7,"cell growth or viability, MTT","0.312 µM, 24 h",viability,93.4%
C[C@@H]1CC[C@@H]([C@](C)(O)CNCc2cccc3ccccc23)[C@H](OCc2ccccc2)C1,HeLa,"cell growth or viability, MTT","10 µM, 72 h",inhibition,67.8%
O=C(Nc1ccc(Oc2nnc(-c3ccc(Cl)cc3)c3ccccc23)cc1)c1ccccc1,MCF7,"cell growth or viability, MTT","0.156 µM, 24 h",viability,22.4%
Cc1cc([C@@H](C)Nc2ccccc2C(=O)O)c2nc(N3CCC(F)(F)CC3)c(C#N)c(=O)n2c1,"PAK2 (Homo sapiens, UniProt Q13177)","binding, competition with immobilised ligand",10 µM,remaining binding,100%
C=CC(=O)N1CCC(COCC(=O)N2CCN(c3nc(-c4cnc(N)nc4C(F)F)nc(N4CCOC[C@@H]4C)n3)CC2)CC1,"CDKL2 (Homo sapiens, UniProt Q92772)","binding, competition with immobilised ligand",1 µM,remaining binding,100%
Cc1cccc(N(O)N=Nc2ccc(S(=O)(=O)Nc3nccs3)cc2)c1,,ABTS scavenging,240 µg/mL,inhibition,99.8%
CC(=NNC(=S)Nc1ccccc1)c1ccc(Nc2nnc(-c3ccc(Cl)cc3)c3ccccc23)cc1,MCF7,"cell growth or viability, MTT","0.625 µM, 24 h",viability,57%
C=C(C)[C@@H]1CC[C@@H](C)C[C@H]1OCc1ccccc1,HeLa,"cell growth or viability, MTT","30 µM, 72 h",inhibition,59.6%
CC(=NNC(=O)c1cccnc1)c1ccc(Nc2nnc(-c3ccc(Cl)cc3)c3ccccc23)cc1,MCF7,"cell growth or viability, MTT","5 µM, 24 h",viability,4.83%
CCN(Cc1ccccc1Cl)c1ccc(CO)c(Cl)c1,RBE,"cell growth or viability, ATP luminescence","46 µM, 72 h",inhibition,87%
COc1cc(C(=O)O)ccc1NC(=O)[C@@H]1N[C@@H](CC(C)(C)C)[C@](C#N)(c2ccc(Cl)cc2F)[C@H]1c1cccc(Cl)c1F,MB002,cell growth or viability,7 days,IC50,0.0134 µM
Cc1[nH]c(C)c(C2CCC(c3ccc(Cl)cc3)CC2)c(=O)c1Cl (stereo not shown),HEK293,cell growth or viability,,IC50,> 10 µM
COc1cc(-c2cncc3c2CN(C)Cc2cc(N4CCNCC4)ccc2-3)cc(OC)c1OC,"VRK1 (Homo sapiens, UniProt Q99986)","enzyme activity, inhibitor",1 µM,remaining activity,113%
Cc1[nH]c(C)c(-c2ccc(-c3ccc(OC(F)(F)F)cc3)cc2)c(=O)c1Cl,HEK293,cell growth or viability,,IC50,> 10 µM
CCCCC(=O)Nc1ccc(-c2ccc3ncn(CCC)c(=O)c3c2)cn1,"RIPK4 (Homo sapiens, UniProt P57078)","binding, competition with immobilised ligand",0.5 µM,remaining binding,100%

# Excerpt of the above:
SMILES,tested on,test,setting,quantity,value
Cc1c(Cc2ccccc2)c(=O)oc2c(C)c(OCC(=O)NN=Cc3ccc([N+](=O)[O-])cc3)ccc12,PC-3,"cell growth or viability, MTT",125 µg/mL,viability,9.13%
CNc1ncc2c(/C=C/C(=O)N3CCC(N(C)C)CC3)nn(CC3CCCC3)c2n1,FLO-1,"cell growth or viability, resazurin",5 days,EC50,> 30 µM
Cc1c(Cc2ccccc2)c(=O)oc2c(C)c(OCC(=O)NN=Cc3ccc(Cl)cc3)ccc12,PC-3,"cell growth or viability, MTT",125 µg/mL,viability,35.1%
CC(=NNC(N)=S)c1ccc(Nc2nnc(-c3ccc(Cl)cc3)c3ccccc23)cc1,MCF7,"cell growth or viability, MTT","1.25 µM, 24 h",viability,5.53%
